Measurements collected from several papers.
Parts stem from different laboratories: compare values within a part only. Positions count from the first letter of the parent shown.

Study 1
Target: ABI1, truncated, D143A, DHFR fusion (Arabidopsis thaliana)
Method: DHFR PCA, deep sequencing
Matrix: yeast
Notes: methotrexate growth selection, single substitutions
Added: (+)-ABA 0 µM
Reference: wild-type fitted maximum
Reading: higher = stronger binding
Parent: PYL1, truncated, DHFR fusion (Arabidopsis thaliana); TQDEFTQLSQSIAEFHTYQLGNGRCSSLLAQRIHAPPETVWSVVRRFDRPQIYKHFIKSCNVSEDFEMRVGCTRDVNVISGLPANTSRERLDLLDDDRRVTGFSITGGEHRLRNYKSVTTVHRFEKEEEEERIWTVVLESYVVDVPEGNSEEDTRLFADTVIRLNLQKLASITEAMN; partner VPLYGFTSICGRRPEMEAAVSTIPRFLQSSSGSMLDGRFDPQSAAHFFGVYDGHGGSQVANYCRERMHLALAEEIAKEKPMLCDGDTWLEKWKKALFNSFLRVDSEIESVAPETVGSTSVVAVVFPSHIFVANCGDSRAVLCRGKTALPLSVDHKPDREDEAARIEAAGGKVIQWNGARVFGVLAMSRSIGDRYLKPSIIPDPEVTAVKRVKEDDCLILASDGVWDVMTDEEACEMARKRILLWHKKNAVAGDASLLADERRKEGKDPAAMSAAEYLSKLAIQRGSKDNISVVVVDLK
Change | relative binding score
P36L | 9.11%
E89I | 3.7%
S104A | 0.838%
F15D | 1.87%
R49G | 1.54%
R88E | 8.91%
R132N | 24.7%
G81E | 9.43%
R45I | -1.25%
D92W | 1.37%
I133Y | 19.6%
K54F | -0.342%
K126V | 34.8%
E67N | 11.8%
G81V | 0.896%
D92T | -2.51%
Y18K | -1.04%
I105P | -4.89%
F157G | -3.98%
W134V | 16.6%

Study 2
Target: TATA-box-binding protein 1 (TBP1, Arabidopsis thaliana, UniProt P28147, residues 1-200, full length assumed)
Method: protein-binding microarray
Form: double-stranded DNA, one strand shown
Matrix: in vitro
Concentration: not given
Notes: k-mer, scored over probes, only values ≥0.25
Reading: higher = stronger binding
Construct (chain): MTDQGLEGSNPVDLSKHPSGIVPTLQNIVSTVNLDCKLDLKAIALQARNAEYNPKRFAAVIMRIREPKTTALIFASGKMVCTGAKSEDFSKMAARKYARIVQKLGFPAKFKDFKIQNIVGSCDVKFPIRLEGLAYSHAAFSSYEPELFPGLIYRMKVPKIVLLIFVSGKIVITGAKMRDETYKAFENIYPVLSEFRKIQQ
Oligonucleotide | E-score
AATTATA | 0.44
CATATGA | 0.26
CATATAG | 0.316
AATAAAG | 0.381
ATTATCC | 0.291
TATCCAA | 0.278
ATATCCC | 0.288
TATTAAA | 0.443
CAATAAA | 0.366
GTTTATA | 0.454
GATAATA | 0.356
TAAACAA | 0.263
ATATTTA | 0.469
ATAAACC | 0.338
ATAAGCG | 0.284

Study 3
Target: Histone acetyltransferase KAT6A, winged helix 2, GST fusion (KAT6A, Homo sapiens, UniProt Q92794, residues 85-181)
Method: protein binding microarray
Form: double-stranded DNA, one strand shown
Matrix: in vitro
Concentration: not given
Notes: 8-mer, flanks averaged, mean of 2 arrays, mostly near background
Reference: not given
Reading: higher = stronger binding
Residues (chain): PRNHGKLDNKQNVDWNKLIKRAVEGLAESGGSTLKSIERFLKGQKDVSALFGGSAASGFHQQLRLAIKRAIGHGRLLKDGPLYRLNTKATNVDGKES
Oligonucleotide | E-score
ACAATCCT | -0.0556
CGCAAGAA | 0.22
CTCTTTAC | -0.0956
ACGGTCAC | -0.103
GAGGTATC | 0.0365
GGACAAAA | 0.0263
AAAGTGCT | -0.0208
ATAGGAAG | 0.034
AACACCGT | -0.116
ATCTTGCC | 0.135
GTACTTGA | -0.109
AATTACCT | -0.169
AAAGGAGC | 0.0559
CGGAGAGC | 0.0902
AGAACAAT | 0.112
CATAAACA | 0.0828
ATGAACTA | -0.144

Study 4
Target: CCNB2, cyclin fold, Cln2 fusion (human)
Method: yeast growth competition, sequencing
Matrix: yeast
Notes: weak parent motif
Reference: not given
Reading: higher = stronger binding
Parent: E2F1 docking peptide (human); PPVKRRLDLETDH
Change | normalised enrichment score
PPVKERLDLETDH [R5E] | -0.083
PPFKRRLDLETDH [V3F] | 0.429
PPVKRELDLETDH [R6E] | 0.351
PPWKRRLDLETDH [V3W] | 0.144
PPVKRRLFLETDH [D8F] | 1.08
PPVKRRCDLETDH [L7C] | 0.175
PPNKRRLDLETDH [V3N] | 0.506
PPVIRRLDLETDH [K4I] | -0.178
PPVKRRLDLETLH [D12L] | 0.265
PPVQRRLDLETDH [K4Q] | 0.263
PPVKCRLDLETDH [R5C] | 0.337
PNVKRRLDLETDH [P2N] | 0.286
PPVKRRLDLETDI [H13I] | 0.803
PPVKRRLDLETDM [H13M] | 0.586
PPVKRLLDLETDH [R6L] | 0.347
PPVKTRLDLETDH [R5T] | -0.151
LPVKRRLDLETDH [P1L] | 0.941
PPVKRRLLLETDH [D8L] | 0.675
PPVRRRLDLETDH [K4R] | 0.24
PPVKRRLDLEADH [T11A] | 0.487
PPVHRRLDLETDH [K4H] | 0.299
PPVKRCLDLETDH [R6C] | -0.104
PPVKRRHDLETDH [L7H] | 0.173

Study 5
Target: Ras GTPase-activating protein-binding protein 1, RRM domain (G3BP1, Homo sapiens, UniProt Q13283)
UniProt Q13283, sequence (whole entry, looked up): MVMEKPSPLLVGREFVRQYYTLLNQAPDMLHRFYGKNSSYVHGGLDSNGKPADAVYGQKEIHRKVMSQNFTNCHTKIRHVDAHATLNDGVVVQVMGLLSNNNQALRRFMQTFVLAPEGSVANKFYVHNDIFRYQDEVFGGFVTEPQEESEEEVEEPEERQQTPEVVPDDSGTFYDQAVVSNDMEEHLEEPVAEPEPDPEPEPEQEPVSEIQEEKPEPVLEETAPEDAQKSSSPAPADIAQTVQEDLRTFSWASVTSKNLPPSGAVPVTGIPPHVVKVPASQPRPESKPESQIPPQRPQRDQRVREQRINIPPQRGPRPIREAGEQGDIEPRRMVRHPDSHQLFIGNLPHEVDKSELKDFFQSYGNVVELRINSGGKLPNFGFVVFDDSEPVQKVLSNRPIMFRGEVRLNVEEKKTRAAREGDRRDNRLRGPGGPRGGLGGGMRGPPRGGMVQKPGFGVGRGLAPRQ
Method: RNA Bind-n-Seq
Form: RNA
Matrix: in vitro
Concentration: 1 µM
Notes: whole 134-nt RNA, ends assumed
Added: 150 mM KCl
Reference: input library
Reading: higher = stronger binding
Oligonucleotide | log2 enrichment
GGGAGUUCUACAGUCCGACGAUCUGCGGGCGGCUGAGACGCCGCCUGCCUGGCACCUAGGAGCGCAGCGGAGCCCCGACACCGCCGCCGCCGCCAUGGAGUCCGAGACCGAACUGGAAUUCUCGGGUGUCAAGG | -0.429
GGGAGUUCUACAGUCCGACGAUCUCCUGUGCUACACAUCGUAUGUACCGAAUCGGGGCCCCCCGGCCCCCCGGCCCCCCGGGAAAGUAUUAUGUUACGCCGUUCGGAUCUGCAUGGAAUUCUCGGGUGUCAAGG | -0.41
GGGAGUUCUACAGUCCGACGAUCCAAGUCCUGUGCUACACAUCGUAUGUACCGAAUCGGGGAAAGGGGUGGGGUGGGGAAAGUAUUAUGUUACGCCGUUCGGAUCUGCACUUCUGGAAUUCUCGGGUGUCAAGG | 1.09
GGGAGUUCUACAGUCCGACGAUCUUAAGGGAAUCUAUUGCUGAACACAAACCUCAUAUUGACAAACUACUAAAGAUAGGCCCACAACUAAAGGAAUUAAACCCUGAGGAAGGGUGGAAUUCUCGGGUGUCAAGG | -0.151
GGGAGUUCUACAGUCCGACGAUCUGCUAGGCAAUGGAUCACUUGGAGUCCUUUAUUGCUGAAUGUGAUCGGAGAACUGAGCUCGCCAAGAAGCGGCUGGCAGAAACACAGGAGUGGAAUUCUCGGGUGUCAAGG | 0.07
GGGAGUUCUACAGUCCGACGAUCAGUCCUGUGCUACACAUCGUAUGUACCGAAUCGGAAAAAGGGGAAAAAGGAAAAAGGGAAAGUAUUAUGUUACGCCGUUCGGAUCUGCACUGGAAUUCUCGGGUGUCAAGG | -0.077
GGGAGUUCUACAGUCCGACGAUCUGGCCCUGGUGGCAUGCGGGGAGGAAGAGGUGGCCUCAUGGAUCGUGGUGGUCCCGGUGGUAUGUUCAGAGGUGGCCGUGGUGGAGACAGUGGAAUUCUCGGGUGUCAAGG | 0.897
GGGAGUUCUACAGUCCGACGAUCUGGGAGGUGGAUUUUGUUUAUUUUUUUAGCUCAUUUCCAGGGGUGGGAAUUUUUUUUUAAUAUGUGUCAUGAAAAAAGUUGUUUUUGAAAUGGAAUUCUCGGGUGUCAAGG | 1.32
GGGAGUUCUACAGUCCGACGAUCGUCCUGUGCUACACAUCGUAUGUACCGAAUCGGGGAAAGGGGAAAGGGGAAAAAGGGGAAAGUAUUAUGUUACGCCGUUCGGAUCUGCACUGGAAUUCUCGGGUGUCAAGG | 1.37
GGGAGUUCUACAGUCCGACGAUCUCCUGUGCUACACAUCGUAUGUACCGAAUCGGGAAAAAGGGUUUUUGGGAAAAAAAGGGAAAGUAUUAUGUUACGCCGUUCGGAUCUGCAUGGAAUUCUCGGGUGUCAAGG | -0.0309

Further values, each from its own experiment
Molecule | target | test | test system | setting | how to read | quantity | value
PhoQ, residues 284 288 289 292 302 303 AMDMFI | PhoP, residues 12 14 15 18 19 TPLRH (Escherichia coli, UniProt P23836) | Sort-seq, item: YFP reporter | E. coli | PhoQ-PhoP variant library, added: 10 µM Mg2+ | reference: high Mg2+ state, higher = stronger signaling | fold induction | 1.08

Some of these lines once more (study 5):
Oligonucleotide | log2 enrichment
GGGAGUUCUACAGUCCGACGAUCUGCGGGCGGCUGAGACGCCGCCUGCCUGGCACCUAGGAGCGCAGCGGAGCCCCGACACCGCCGCCGCCGCCAUGGAGUCCGAGACCGAACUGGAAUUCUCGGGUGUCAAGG | -0.429
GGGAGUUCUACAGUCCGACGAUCUCCUGUGCUACACAUCGUAUGUACCGAAUCGGGGCCCCCCGGCCCCCCGGCCCCCCGGGAAAGUAUUAUGUUACGCCGUUCGGAUCUGCAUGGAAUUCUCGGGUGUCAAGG | -0.41
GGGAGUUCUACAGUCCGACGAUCCAAGUCCUGUGCUACACAUCGUAUGUACCGAAUCGGGGAAAGGGGUGGGGUGGGGAAAGUAUUAUGUUACGCCGUUCGGAUCUGCACUUCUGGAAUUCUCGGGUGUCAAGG | 1.09
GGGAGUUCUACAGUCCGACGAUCUUAAGGGAAUCUAUUGCUGAACACAAACCUCAUAUUGACAAACUACUAAAGAUAGGCCCACAACUAAAGGAAUUAAACCCUGAGGAAGGGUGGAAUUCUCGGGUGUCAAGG | -0.151
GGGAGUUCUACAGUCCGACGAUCUGCUAGGCAAUGGAUCACUUGGAGUCCUUUAUUGCUGAAUGUGAUCGGAGAACUGAGCUCGCCAAGAAGCGGCUGGCAGAAACACAGGAGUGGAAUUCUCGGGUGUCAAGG | 0.07
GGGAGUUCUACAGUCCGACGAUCAGUCCUGUGCUACACAUCGUAUGUACCGAAUCGGAAAAAGGGGAAAAAGGAAAAAGGGAAAGUAUUAUGUUACGCCGUUCGGAUCUGCACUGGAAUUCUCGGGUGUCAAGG | -0.077
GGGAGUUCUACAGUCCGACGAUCUGGCCCUGGUGGCAUGCGGGGAGGAAGAGGUGGCCUCAUGGAUCGUGGUGGUCCCGGUGGUAUGUUCAGAGGUGGCCGUGGUGGAGACAGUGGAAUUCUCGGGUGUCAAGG | 0.897
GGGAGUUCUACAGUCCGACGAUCUGGGAGGUGGAUUUUGUUUAUUUUUUUAGCUCAUUUCCAGGGGUGGGAAUUUUUUUUUAAUAUGUGUCAUGAAAAAAGUUGUUUUUGAAAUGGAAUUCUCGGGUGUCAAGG | 1.32
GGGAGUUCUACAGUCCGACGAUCGUCCUGUGCUACACAUCGUAUGUACCGAAUCGGGGAAAGGGGAAAGGGGAAAAAGGGGAAAGUAUUAUGUUACGCCGUUCGGAUCUGCACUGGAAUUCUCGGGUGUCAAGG | 1.37
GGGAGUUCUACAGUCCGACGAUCUCCUGUGCUACACAUCGUAUGUACCGAAUCGGGAAAAAGGGUUUUUGGGAAAAAAAGGGAAAGUAUUAUGUUACGCCGUUCGGAUCUGCAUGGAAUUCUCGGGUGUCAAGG | -0.0309
